Measured values collected from several papers.
A part holds a random share of what one study measured.

Block 1 — technique: RNA Bind-n-Seq; molecule type: RNA; matrix: in vitro; concentration: 365 nM; relative to: no-protein control; reading: higher = stronger binding; endpoint: RBNS enrichment (R)
Target: RNA binding protein fox-1 homolog 2, RRM domain, GST-SBP tag (RBFOX2, Homo sapiens, UniProt O43251-10, residues 100-194)
Setting: natural RNA segment, single round, ends assumed
Constant ends, left off below: GGGAGUUCUACAGUCCGACGAUC … UGGAAUUCUCGGGUGCCAA
Target sequence (chain): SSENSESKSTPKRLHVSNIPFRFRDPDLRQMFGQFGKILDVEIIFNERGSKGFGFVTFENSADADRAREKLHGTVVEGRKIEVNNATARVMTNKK
CCCAUAACAUGGUGUGAGGACGGACUGGGAGCCGGUACAGACUCCAGUGUUUACAGCCUUGCUUUCCUCCCACCGACCCUGGCCCCAGGCUGCCCCGGGCCUGGCGGGCC: 0.249
CUUUCCCAUUGACCACUUUGGGUUUGACCUGCACAUCUGCAGUGAGGGCAGAAUUCAACAAGCACAACUCACUGGUCUUUCAGUCAACGUGCUAGAAACCGAUGACUUAU: 0.319
UUGCUAGUAGAUCAAAGCUAUUUUCACACGCUCUGUUUUCUAUCUUGUAUCGAUCCUGCGAAUCAGUGAUUAUCUUUGUUGGAAAACCUUAUCAAAUGUGUCUGCAAAUC: 0.525
AUGCAUACAUUCCACUACUGACACUCUCAAGGUAAUAUUAAACAUGAUCUAGGUACUAAGAUAUUCACUGUGAACCCGAUCUAUUGCACAAAUGGAGUCCUUUUGUAUUA: 0.26
AGUUACAGUUUACUAAUAAAGUUAAGUCUGGUUCUGUCCUAGAGGAAAUAAAUUCACUAUUAAUUCAUGUCUUAAGUUACUUGGGUUAAAACACUUUCAGCCACCCAGAU: 0.373
CUUUGCAUACUGUUCAUCGCAGUAGCAACAAAAUUGCAAUCAGCCAACAGGCUUUAAAACGUCCCUGAACGUACAGUAUUCUAAGUUACCGUGAGCCUUCACAAACAUCA: 0.3
AAAUGUUAUUUCCUGCAUCCCUUGGCUGUGAUGCCCCUCUCCCGAUUUCCCAGGGGCUCUGGGAGGGACCCUUCUAAGAAGAUUGGGCAGUUGGGUUUCUGGCUUGAGAU: 0.621
UGGCUCUCUCUCCCCCACUUGUUCUGACUUAGGAUAAUGAUCUCUAUUUUGUUUGUUUCUCAAGUGACUUGUGGACUUGUGCUGUAUAAACUGUAUUAAAAAGGCUCUGU: 0.63
CUGUUUAUAUUUUUGGAAUAUUUGUAUUACAAUUGUUAAUAAAGGCUGGUUUAAAAACCUGUGCAGGACUGGGAGCUGCUUUUGCUUUCCUUCCCUUCCACUGACCUGAC: 0.407
GUCUUUGAGAUAGACAUUGGAGCAGACGGACUCUGGAAAGUGCUUCUGUGGCUGUGGUCUGUCCUGGGAACAGACGUGGUAAAAUGCGUUUCCUAUCUCUAAAAUAUCUA: 0.458
CACCCCCUUUACAGCUCCCAACUUGGGUCCUGUAAAUGGAGGUGUCAUUGCCAUCACCAUCGCCAGCAUUGAGGAAGAGCCUCUGAAGUGUCAGGACUUUGCAGUGUAGC: 0.242
GUAUUUCAUUGCAUGGGCGUACUACUCUGCUUCUUUAUUUUUACACUGAGCCUUUCGCCCUGGAAGUUCUUGGCCCAGGGUCUUCAACUUGUUUGCACGACCACUUCCAG: 4.68

Block 2 — technique: aptamer microarray, sandwich; molecule type: DNA with 2'F-ANA; matrix: in vitro; concentration: 200 nM; with: Cy3 exosite-II aptamer, 400 nM; reading: higher = stronger binding; endpoint: mean fluorescence intensity; sequence: GGTTGGTGTGGTTGG
Target: Prothrombin, mature alpha-thrombin (F2, Homo sapiens, UniProt P00734)
Setting: whole 15-mer aptamer, many near background
2'F-ANA at 4 13 14: 87.7 a.u.
2'F-ANA at 3 6 7 10 11: 539 a.u.
2'F-ANA at 3 6 8 9 13 14: 529 a.u.
2'F-ANA at 2 4 5 6 9 10 11 12: 54.3 a.u.
2'F-ANA at 3 5 12 14: 65.3 a.u.
2'F-ANA at 2 3 4 5 8 9 11 12 14: 51.4 a.u.
2'F-ANA at 1 3 8 9 10 13 14 15: 58.2 a.u.
2'F-ANA at 1 2 3 6 11: 177 a.u.
2'F-ANA at 5 9: 87.9 a.u.
2'F-ANA at 3 4 5 6 7 10 11 13 15: 47.6 a.u.
2'F-ANA at 1 2 3 5 6 7 10 12 13 14: 62.9 a.u.
2'F-ANA at 1 2 4 5 6 7 11 12 13 15: 63.1 a.u.
2'F-ANA at 1 3 7 8 10 12: 137 a.u.
2'F-ANA at 1 5 6 7 11: 49.9 a.u.
2'F-ANA at 4 5 6 8 10 11 13 14: 44.8 a.u.
2'F-ANA at 2 3 6 7 9 12: 1010 a.u.
2'F-ANA at 2 3 4 5 7 8 12: 263 a.u.
2'F-ANA at 1 2 4 5 6 7 8 9 13: 49.4 a.u.
2'F-ANA at 1 2 6 7 11 13 14 15: 52.6 a.u.
2'F-ANA at 1 2 4 6 9 10 11 12 13 15: 54.7 a.u.
2'F-ANA at 1 2 3 4 5 6 9 10 11 12 14: 48.8 a.u.
2'F-ANA at 3 6 10 12 14: 412 a.u.
2'F-ANA at 3 5 6 7 9 10 11 13 15: 54.2 a.u.
2'F-ANA at 3 6 9 11 13 15: 647 a.u.
2'F-ANA at 3 5 7 9 10 12 13 15: 112 a.u.

Block 3 — technique: universal PBM; molecule type: double-stranded DNA, one strand shown; matrix: in vitro; concentration: not given; reading: higher = stronger binding; endpoint: E-score
Target: Sal-like protein 4, full length isoform B (SALL4, Homo sapiens, UniProt Q9UJQ4-2, residues 1-616)
Setting: 8-mer, flanks averaged, mean of replicates
Residues (chain): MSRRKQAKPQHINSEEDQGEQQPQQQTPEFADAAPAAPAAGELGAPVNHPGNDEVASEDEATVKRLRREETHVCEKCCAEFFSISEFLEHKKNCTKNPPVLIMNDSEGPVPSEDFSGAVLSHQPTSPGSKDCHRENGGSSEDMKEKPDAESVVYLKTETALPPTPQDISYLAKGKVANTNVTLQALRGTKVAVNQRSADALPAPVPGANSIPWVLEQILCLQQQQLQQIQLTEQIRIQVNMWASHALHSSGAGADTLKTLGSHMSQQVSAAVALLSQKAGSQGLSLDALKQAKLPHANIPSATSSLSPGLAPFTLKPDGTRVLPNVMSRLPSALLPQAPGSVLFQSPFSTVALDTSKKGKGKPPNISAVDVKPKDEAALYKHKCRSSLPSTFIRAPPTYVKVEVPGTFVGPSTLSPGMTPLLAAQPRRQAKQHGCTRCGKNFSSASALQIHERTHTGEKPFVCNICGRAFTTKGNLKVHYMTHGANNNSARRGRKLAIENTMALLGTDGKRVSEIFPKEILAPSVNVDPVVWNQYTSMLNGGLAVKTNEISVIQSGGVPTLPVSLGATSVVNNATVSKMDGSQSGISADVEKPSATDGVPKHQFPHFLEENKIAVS
ACAGTGCC: -0.135
AAAGATTG: 0.106
CATGAAAA: 0.228
GCACAATA: 0.191
CCACGCGC: -0.228
CATGTCGA: -0.0506
CCTGCTCA: -0.182
CCGCAATC: -0.209
ACCATTTC: 0.168
TAAGAACA: 0.246
ATAGTGTA: 0.234
CCCAGCTA: -0.169
AAGCGAAT: 0.0126
AGTAGAAC: 0.196
GCAGGGGA: -0.274
AAGTGAGC: -0.19

Block 4 — technique: protein-binding microarray; molecule type: double-stranded DNA, one strand shown; matrix: in vitro; concentration: 2200 nM top; setting: 60-bp whole probe; with: salmon DNA 0.4 mg/ml; relative to: random background probes; reading: higher = stronger binding; endpoint: fitted relative affinity; constant ends, left off below: GCCTAGCAC … GTCTTGATTCGCTTGACGCTGCTG
Target: Interferon regulatory factor 7, full length, phosphomimetic (IRF7, Homo sapiens, UniProt Q92985, residues 1-503, S471D/S472D/S475D/S476D/S477D/S483D/S484D/S487D)
Residues (chain): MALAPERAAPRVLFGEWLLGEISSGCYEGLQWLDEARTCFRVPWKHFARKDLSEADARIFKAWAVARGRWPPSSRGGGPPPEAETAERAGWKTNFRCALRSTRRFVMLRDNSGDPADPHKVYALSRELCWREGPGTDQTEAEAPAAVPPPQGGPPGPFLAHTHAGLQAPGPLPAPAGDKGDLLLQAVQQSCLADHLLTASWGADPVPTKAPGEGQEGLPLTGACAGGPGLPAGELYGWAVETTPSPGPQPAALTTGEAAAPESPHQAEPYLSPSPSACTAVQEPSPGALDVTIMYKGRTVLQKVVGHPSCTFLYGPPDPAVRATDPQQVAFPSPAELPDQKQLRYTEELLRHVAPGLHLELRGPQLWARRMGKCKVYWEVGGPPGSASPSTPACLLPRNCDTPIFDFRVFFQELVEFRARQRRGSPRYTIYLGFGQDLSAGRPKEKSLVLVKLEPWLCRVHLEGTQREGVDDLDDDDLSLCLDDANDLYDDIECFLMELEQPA
GACGCTTTCAGTTTCGAGACGTGCTAG: 8.06 z-score
TATGTTCCTTATTTAAGACCGTGCTAG: 1.37 z-score
TTAGAACGGAGTTTCGATTAGTGCTAG: 3.57 z-score
TTAGGTATCGACACTAGGTTAGTGCTA: -0.283 z-score
TTAGGACTGGACACTGTGTTAGTGCTA: -0.348 z-score
TTAGGACTGGGTCGCGGTTAGTGCTAG: -0.505 z-score
GACGATCGCAGTCTCGAGACGTGCTAG: 0.28 z-score
TTAGAACTGGACTTTCGGTTAGTGCTA: 4.99 z-score
TTAGGAGTGGGGTATCGGTTAGTGCTA: -0.202 z-score
TCATCTTCCTTCATGGCACTGTGCTAG: 1.85 z-score
CTTTCTTTTATGCTCTTTCTGTGCTAG: 2.53 z-score
TCACGGCTCTAAACTCATACTGTGCTA: -0.0693 z-score
TTAGGTCTCGACACTGGGTTAGTGCTA: -0.322 z-score
GACGATATCGTGTTTCGAGACGTGCTA: 1.93 z-score
CACAGTTTGTAAATCTTTTTGTGCTAG: 0.771 z-score
CCCTGTCTGTCCAGAAACCCGTGCTAG: 0.553 z-score
TCATTTGTATTTTTGATACTGTGCTAG: 1.62 z-score
TTAGGTTTCGGTCTCTGTTAGTGCTAG: 7.73 z-score
CAGCCGCACAGCATGAGTTCGTGCTAG: -0.681 z-score
GACGAACTGAGACTGGTGACGTGCTAG: -0.256 z-score

Block 5 — technique: RNA Bind-n-Seq; molecule type: RNA; matrix: in vitro; concentration: 20 nM; setting: 6-mer, flanks averaged, single round; with: 150 mM LiCl; relative to: input library; reading: higher = stronger binding; endpoint: 6-mer enrichment (R)
Target: TAR DNA-binding protein 43, full length, His tag (TARDBP, Homo sapiens, UniProt Q13148, residues 1-414)
AUAUUU: 1.13
UUAUUU: 1.35
GGAAAA: 0.915
CCGGCG: 0.96
UUUAUC: 1.06
GACCAG: 0.898
UGAAGA: 0.938
CUGUGC: 0.99
UUGAUC: 0.912
AAGUUA: 0.911
UCUAAU: 0.929
UAGAAU: 0.954
AGUGGG: 1.35
ACUUCU: 0.863
GUAGUA: 1.06
ACCGUG: 0.926
UUGCUA: 0.973
GCAUCU: 0.842

Some of these lines once more (block 2):
2'F-ANA at 3 4 5 6 7 10 11 13 15: 47.6 a.u.
2'F-ANA at 1 2 3 5 6 7 10 12 13 14: 62.9 a.u.
2'F-ANA at 1 2 4 5 6 7 11 12 13 15: 63.1 a.u.
2'F-ANA at 1 3 7 8 10 12: 137 a.u.
2'F-ANA at 1 5 6 7 11: 49.9 a.u.
2'F-ANA at 4 5 6 8 10 11 13 14: 44.8 a.u.
2'F-ANA at 2 3 6 7 9 12: 1010 a.u.
2'F-ANA at 2 3 4 5 7 8 12: 263 a.u.
2'F-ANA at 1 2 4 5 6 7 8 9 13: 49.4 a.u.
2'F-ANA at 1 2 6 7 11 13 14 15: 52.6 a.u.
2'F-ANA at 1 2 4 6 9 10 11 12 13 15: 54.7 a.u.
